# Published values from different studies.
# Each numbered part is a random draw from the data of one study; scales do not carry over between parts.

# Sample 1
# Target: Ras GTPase-activating protein-binding protein 1, RRM domain (G3BP1, Homo sapiens, UniProt Q13283)
# UniProt Q13283, sequence (whole entry, looked up): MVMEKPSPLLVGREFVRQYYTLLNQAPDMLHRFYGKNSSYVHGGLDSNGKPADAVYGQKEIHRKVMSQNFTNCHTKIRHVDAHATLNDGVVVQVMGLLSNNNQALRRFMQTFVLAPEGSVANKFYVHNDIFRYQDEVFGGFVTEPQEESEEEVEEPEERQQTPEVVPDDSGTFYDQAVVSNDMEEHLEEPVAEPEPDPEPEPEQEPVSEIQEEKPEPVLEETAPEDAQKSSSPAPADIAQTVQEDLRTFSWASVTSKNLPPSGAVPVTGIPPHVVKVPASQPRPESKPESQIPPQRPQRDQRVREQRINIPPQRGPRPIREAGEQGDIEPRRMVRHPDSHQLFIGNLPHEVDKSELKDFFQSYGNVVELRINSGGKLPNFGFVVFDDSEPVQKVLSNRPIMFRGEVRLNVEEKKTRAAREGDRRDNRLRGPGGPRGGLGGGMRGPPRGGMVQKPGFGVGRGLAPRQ
# Method: RNA Bind-n-Seq
# Molecule type: RNA
# Matrix: in vitro
# Concentration: 1 µM
# Notes: whole 134-nt RNA, ends assumed
# Together with: 150 mM KCl
# Baseline: input library
# Reading: higher = stronger binding
Sequence,log2 enrichment
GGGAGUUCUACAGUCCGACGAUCUCCUGUGCUACACAUCGUAUGUACCGAAUCGGAAAAAAGGGGAAAAAAGGAAAAAAGGGAAAGUAUUAUGUUACGCCGUUCGGAUCUGCAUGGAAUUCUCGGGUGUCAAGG,0.0653
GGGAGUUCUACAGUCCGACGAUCUCCUGUGCUACACAUCGUAUGUACCGAAUCGGGGAAAAAGGGGAAAAAGGGGUUUGGGGAAAGUAUUAUGUUACGCCGUUCGGAUCUGCAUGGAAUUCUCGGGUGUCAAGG,1.09
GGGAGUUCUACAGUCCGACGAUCUAACUUUAGAGGAGGAUCUGAUGGAUAUGGCAGUGGACGUGGAUUUGCGGAUGGCUAUAAUGGGUAUGGAGGAGGACCUGGAGGUGGCAAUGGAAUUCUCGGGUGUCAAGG,-0.565
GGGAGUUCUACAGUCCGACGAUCAAGUCCUGUGCUACACAUCGUAUGUACCGAAUCGGGUUUUUGGGAAAAAGGGUGGGAAAGUAUUAUGUUACGCCGUUCGGAUCUGCACUUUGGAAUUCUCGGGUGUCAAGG,0.599
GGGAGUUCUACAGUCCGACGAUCUGGGAGGUGGAUUUUGUUCAUUUUUUUAGCUCAUUUCCAGGGGUGGGAAUUUUUUUUUAAUAUGUGUCAUGAAUAAAGUUGUUUUUGAAAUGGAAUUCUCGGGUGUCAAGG,1.03
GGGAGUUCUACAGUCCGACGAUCAGUCCUGUGCUACACAUCGUAUGUACCGAAUCGGGAAAAGGGAAAAGGGGAAAAGGGGAAAGUAUUAUGUUACGCCGUUCGGAUCUGCACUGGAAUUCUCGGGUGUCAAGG,0.481
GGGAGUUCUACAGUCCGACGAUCCCUGUGCUACACAUCGUAUGUACCGAAUCGGUUUUUUUGGGUUUUUUUGGUUUUUUUGGGAAAGUAUUAUGUUACGCCGUUCGGAUCUGCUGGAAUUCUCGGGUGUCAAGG,-0.173
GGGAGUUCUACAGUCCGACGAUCACCUUGCAGGUGGGCAUCUUUGGGAAGUGGGGCAAGGGGGGGAUAGGGAGGGGGGUAACACUUUGGGAACAGGUGGUCCCAGGUCGUUUCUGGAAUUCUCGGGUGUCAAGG,-0.537
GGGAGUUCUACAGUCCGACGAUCUCCUGUGCUACACAUCGUAUGUACCGAAUCGGGGAAAAAGGGGAGGGGUUUUUUUGGGGAAAGUAUUAUGUUACGCCGUUCGGAUCUGCAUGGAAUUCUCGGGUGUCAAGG,0.634
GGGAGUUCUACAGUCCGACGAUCAGUCCUGUGCUACACAUCGUAUGUACCGAAUCGGUUUUUUUGGAAAGGAAAAAAAGGAAAGUAUUAUGUUACGCCGUUCGGAUCUGCACUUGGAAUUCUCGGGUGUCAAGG,-0.125
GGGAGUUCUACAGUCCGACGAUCGUCCUGUGCUACACAUCGUAUGUACCGAAUCGGGAAAAAGGGUUUUUUUGGGAAAGGGAAAGUAUUAUGUUACGCCGUUCGGAUCUGCACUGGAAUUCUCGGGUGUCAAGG,0.00833
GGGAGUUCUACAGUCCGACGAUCCUCAAGUCCUGUGCUACACAUCGUAUGUACCGAAUCGGGAGGGGAGGGGAGGGGAAAGUAUUAUGUUACGCCGUUCGGAUCUGCACUUCCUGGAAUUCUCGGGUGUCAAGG,1
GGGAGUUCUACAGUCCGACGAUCCUCAAGUCCUGUGCUACACAUCGUAUGUACCGAAUCGGGUGGGGUGGGGUGGGGAAAGUAUUAUGUUACGCCGUUCGGAUCUGCACUUCCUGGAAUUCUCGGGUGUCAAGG,0.539
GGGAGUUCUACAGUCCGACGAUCACCAUGCAGGUGGGCAUCUUUGGGAAGUGGGGCAAGGGGGGGAUAGGGAGUGGGGUAACACUUUGGGAACAGGUGGUCCCAGGUCGUUUCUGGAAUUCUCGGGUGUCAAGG,1.03

# Sample 2
# Target: Interferon regulatory factor 7, full length, phosphomimetic (IRF7, Homo sapiens, UniProt Q92985, residues 1-503, S471D/S472D/S475D/S476D/S477D/S483D/S484D/S487D)
# Method: protein-binding microarray
# Molecule type: double-stranded DNA, one strand shown
# Matrix: in vitro
# Concentration: 2200 nM top
# Notes: 60-bp whole probe
# Together with: salmon DNA 0.4 mg/ml
# Baseline: random background probes
# Reading: higher = stronger binding
# All sequences stand within: GCCTAGCAC … GTCTTGATTCGCTTGACGCTGCTG
# Target sequence (chain): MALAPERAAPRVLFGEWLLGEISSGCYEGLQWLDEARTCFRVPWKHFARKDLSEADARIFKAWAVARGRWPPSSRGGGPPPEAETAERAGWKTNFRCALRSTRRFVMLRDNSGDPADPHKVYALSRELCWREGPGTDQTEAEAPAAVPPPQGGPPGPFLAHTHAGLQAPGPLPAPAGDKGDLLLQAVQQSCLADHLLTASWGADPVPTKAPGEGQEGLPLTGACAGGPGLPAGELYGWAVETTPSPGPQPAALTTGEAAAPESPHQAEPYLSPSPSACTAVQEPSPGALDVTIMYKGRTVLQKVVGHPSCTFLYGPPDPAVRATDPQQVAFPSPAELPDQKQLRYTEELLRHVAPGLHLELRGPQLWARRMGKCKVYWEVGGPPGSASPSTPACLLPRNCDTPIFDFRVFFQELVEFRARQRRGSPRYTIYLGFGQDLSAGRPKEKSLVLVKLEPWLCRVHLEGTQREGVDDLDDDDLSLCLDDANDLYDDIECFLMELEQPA
Sequence,fitted relative affinity [z-score]
GCCGGTATCGGGTATCGGGACGTGCTA,-0.0415
TTAGAACTGAGACTGGATGAGTGCTAG,-0.68
TCAGCTACACATCTCACACTGTGCTAG,0.964
GACGGTTTCCTACTGCTGGCGTGCTAG,1.97
CTATTTTTCACCTGCACTCAGTGCTAG,2.55
CAGAGCATGGATCTGGGAACGTGCTAG,-0.681
GACGAACTGAGTCTCGACACGTGCTAG,0.0972
TCATCTCTGTTTATGTCACTGTGCTAG,1.95
TCACTCACTCACAGACTCACGTGCTAG,1.08
GACGGTTCCCTTTTCCGGACGTGCTAG,2.62
TTAGAACTGATTTTCGATTAGTGCTAG,3.72
TCATTTTTTTTTTCATCACTGTGCTAG,2.41
TTAGGTTTCGACTATAGGTTAGTGCTA,2.08
TCTCCTTTCCAAATACCCTCGTGCTAG,3.27
TTAGGACTGGGTATCGTTTAGTGCTAG,-0.12
TCAGGACTGGGTATCGGTTAGTGCTAG,-0.319
TTAGGTTTCGGACTGGGTTTGTGCTAG,3.26
GACGGTATCGGTTTTGGGACGTGCTAG,1.61
GACGGACTGGGGTTACGGGACGTGCTA,-0.765
TTAGGACTGGGTTTCGGTTTGTGCTAG,8.96
TTAGGTCTCCTACTGCTCTAGTGCTAG,0.504
TTAGGTTTCCTTAGCCTTTAGTGCTAG,0.64
TTACATATCGGGTATCGATTAGTGCTA,1
CTCATGTTACATTTATATCTGTGCTAG,1.51
GACGGACTGGGGTATCGGCACGTGCTA,-0.884

# Sample 3
# Target: RING finger protein unkempt homolog, zinc fingers 1-6, GST-SBP tag (UNK, Homo sapiens, UniProt Q9C0B0, residues 30-357)
# Method: RNA Bind-n-Seq
# Molecule type: RNA
# Matrix: in vitro
# Concentration: not given
# Notes: RNA with constant flanks, human and mouse sites, ends assumed
# Baseline: input RNA pool
# Reading: higher = stronger binding
# Target sequence (chain): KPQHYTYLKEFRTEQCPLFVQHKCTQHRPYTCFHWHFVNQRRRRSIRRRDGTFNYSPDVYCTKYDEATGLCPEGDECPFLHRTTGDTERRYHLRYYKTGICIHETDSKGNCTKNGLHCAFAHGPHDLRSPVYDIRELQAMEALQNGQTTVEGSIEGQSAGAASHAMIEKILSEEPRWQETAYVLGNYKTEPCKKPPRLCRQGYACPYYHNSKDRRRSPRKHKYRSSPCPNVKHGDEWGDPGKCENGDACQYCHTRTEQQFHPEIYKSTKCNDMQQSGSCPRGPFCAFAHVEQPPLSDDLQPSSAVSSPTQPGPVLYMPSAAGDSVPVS
Sequence,bound/input enrichment [ratio]
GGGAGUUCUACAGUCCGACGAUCCCAGGGCUCAAAGUGGGCCCUGUCCCAGUGCUGGUGAUGAGUCUUCUGUUCAUCGCUGCUGUAUUUAUGCUGCACAUUUGGGGCAAGUACACGCGAUCAUAGAUUGGGCUACAUCCAUCUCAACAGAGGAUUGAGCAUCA,0.141
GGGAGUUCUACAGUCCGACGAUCAUUGAUGAGAUCCAUAAUGAUGAUGGUGUGUGGCUGAGGCUGAAUGAUGAGACAAUAAAGAAGUAUGUCCCUAACAUGAAUGGUUACACUGAAGCCUGGUGCCUCUCUUUUAAUCAACAUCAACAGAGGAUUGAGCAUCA,0.148
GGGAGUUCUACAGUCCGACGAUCGAAGUAUUUGACGCUUUAAAGUUAGACUCUAUGGAAAGCUCGGAGACGUCAUGUCGAGACCUGUCCAGCUCACCCCCUGGGCCUUACGGUCAAGAAAUGUAUGUGUUUCGAUCUGAGGAGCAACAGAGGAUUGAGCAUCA,0.0403
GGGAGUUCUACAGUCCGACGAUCGUUGGUCAAUUCUACUUCUUGAUCCGGAAGCGAAUUCAUCUCCGUGCUGAAGAUGCCUUGUUUUUCUUUGUCAACAAUGUCAUUCCACCCACCAGUGCCACGAUGGGUCAGCUGUACCAGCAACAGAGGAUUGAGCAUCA,0.179
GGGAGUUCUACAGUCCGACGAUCCUAUAUCUGAAACUUACAUUUGACCUCAUAGAGAAAGGCUAUCUAGUGUUAAAGAGCUCUAGCUACAAAGUAGUUCCUGUUUCGCUCUCAGAGGUUUAUUUACUCCAGUGCAAUAUGAAGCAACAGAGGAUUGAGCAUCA,0.415
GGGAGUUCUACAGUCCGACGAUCUUUGGAGGUAUUUGAUAACUGAGUAGGUGAGGAGAUUAAAAGGGAGCCAUAUAGCACUGUCACCCCUUAUUUGAGGAACUGAUGUUUGAAAGGCUGUUCUUUUCUCUCUUAAUGUCAUUUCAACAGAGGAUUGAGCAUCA,0.323
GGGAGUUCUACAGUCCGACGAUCCGAUCAGGGGAUAGUGAAGUAUACCAAAUGGGUGACGUUAGUCAGAAGACGACGUGGCACAGAAUAUCAGUGUUUCGACCAGGCCUCAGAGAUGUGGCAUAUCAGUAUGUGAAAAAGGGGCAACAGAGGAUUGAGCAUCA,0.193
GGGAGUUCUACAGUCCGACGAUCUCUGAUAGGAAUAUAGUACUGUAUGAUAUGCGGCAAGCUACUCCUUUGAAAAAGGUUAUCCUGGAAAUGAGGACAAAUACAAUCUGUUGGAACCCUAUGGAAGCUUUCAAUUUUACUGCACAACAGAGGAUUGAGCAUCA,0.336
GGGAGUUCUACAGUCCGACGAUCGGCUGCAUAACUGGAGUCUGUAGAACAGAGCUGAAGCUAAGGAUUUAAAUGUGGUCACCGUCCCUGGAGGAUUUGUUGGUCCUGGGUCUACAGUACUGUGAUACAAGGUGACUCAGUGGGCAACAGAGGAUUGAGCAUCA,0.336
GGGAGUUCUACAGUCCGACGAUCUGUUUCAUAUCCAUAUCCCACUGUAUUCCUGCUAAUCUGCUAAUGCAGUAAAUUGGAGGAAAACUGUUACCAGGAUAACCUGUAAUGGGCAAGGAGCCACAAAGAAGAAAACAUUUCUUUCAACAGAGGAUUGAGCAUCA,0.155
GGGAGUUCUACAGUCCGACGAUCUAUGUAUAUCUCAAGCAAACCAAAAUGCAAUCUUCUGCUUUGUUCUGUUCUAAAUCAUUGUAGUUAUAUCUUUCUGAAACCAUUUUGCAUUUAGUUGAAAUUGUCAGUAUUUAUGCUUUUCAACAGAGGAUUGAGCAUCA,0.584

# Other studies, line by line
Molecule,target or system,assay,test system,conditions,scale,endpoint,value
IPDRSTKPVVFSPT,Saccharomyces cerevisiae,"binding, yeast competitive growth sequencing","peptide, cyclin A1-Cln2 strain, peptide tiling library",,direction not given,enrichment score,0.68
"PhoQ, residues 284 288 289 292 302 303 GTAMQF","PhoP, residues 12 14 15 18 19 SYFRT (Escherichia coli, UniProt P23836)","Sort-seq, item: YFP reporter",E. coli,"PhoQ-PhoP variant library, together with: 10 µM Mg2+","baseline: high Mg2+ state, higher = stronger signaling",fold induction,5.13
GSALKKLFTSTGL,Saccharomyces cerevisiae,"peptide binding, yeast competitive growth sequencing","peptide, cyclin F-Cln2 fusion",library 1,direction not given,enrichment score,-0.342
VKTKKRLNFDDK,Saccharomyces cerevisiae,"binding, competitive growth deep sequencing","peptide, cyclin E1-Cln2 fusion strain",peptide tiling library,direction not given,enrichment score,-0.546

# Excerpt of the above (sample 1):
Sequence,log2 enrichment
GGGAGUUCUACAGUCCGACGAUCUCCUGUGCUACACAUCGUAUGUACCGAAUCGGGGAAAAAGGGGAGGGGUUUUUUUGGGGAAAGUAUUAUGUUACGCCGUUCGGAUCUGCAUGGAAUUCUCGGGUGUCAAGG,0.634
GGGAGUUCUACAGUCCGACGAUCAGUCCUGUGCUACACAUCGUAUGUACCGAAUCGGUUUUUUUGGAAAGGAAAAAAAGGAAAGUAUUAUGUUACGCCGUUCGGAUCUGCACUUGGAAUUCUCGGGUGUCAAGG,-0.125
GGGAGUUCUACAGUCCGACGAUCGUCCUGUGCUACACAUCGUAUGUACCGAAUCGGGAAAAAGGGUUUUUUUGGGAAAGGGAAAGUAUUAUGUUACGCCGUUCGGAUCUGCACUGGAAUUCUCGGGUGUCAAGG,0.00833
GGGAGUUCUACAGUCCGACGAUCCUCAAGUCCUGUGCUACACAUCGUAUGUACCGAAUCGGGAGGGGAGGGGAGGGGAAAGUAUUAUGUUACGCCGUUCGGAUCUGCACUUCCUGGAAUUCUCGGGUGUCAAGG,1
